Experimental data pooled from the literature.
Each line is one published result; not all experiments were run side by side. ± marks the error that the study gave.

Structure (SMILES) | cell line | test | setting | EC50 [nM]
O=C(CCCCCC(=O)NN=Cc1ccc(-c2ccccc2)cc1)NO | mouse primary forebrain neurons | histone H3K9 acetylation | 24 h | 180
O=C(CCCCC[C@@H]1NC(=O)[C@H]2CCCN2C(=O)[C@H](Cc2ccccc2)NC(=O)[C@H](Cc2ccccc2)NC1=O)NO | human iPSC-derived NPCs | inducer, ELISA, item: intracellular progranulin | 18 h | 450 ± 10
C[C@]12CCC(=O)C=C1CC[C@@H]1[C@@H]2[C@@H](O)C[C@@]2(C)[C@H]1CC[C@]2(O)C(=O)CO | Kasumi 1 | cell growth or viability, XTT |  | 320
N=C(NCCCCCN)c1ccc(OCCCCCOc2ccc(C(=N)NCCCCCN)cc2)cc1 | WM-115, S100B shRNA | cell growth, SYBR Green | low S100B | 33300 ± 500
CCC#CC[C@H](C)[C@H](O)/C=C/[C@H]1CC(F)(F)C(=O)N1CCCCCCC(=O)O | rat bone marrow cells | alkaline phosphatase activity, activator | 9 days, vehicle pretreatment | 2.15
C[C@@H]1C[C@H]2[C@@H]3CCC4=CC(=O)C=C[C@]4(C)[C@@]3(F)[C@@H](O)C[C@]2(C)[C@@]1(O)C(=O)CO | Kasumi 1 | cell growth or viability, XTT |  | 24
CSCC[C@H](NC(=O)[C@H](CC(C)C)NC(=O)CNC(=O)[C@H](Cc1ccccc1)NC(=O)[C@H](Cc1ccccc1)NC(=O)[C@H](CCC(N)=O)NC(=O)[C@H](CCC(N)=O)NC(=O)[C@@H]1CCCN1C(=O)[C@H](CCCCN)NC(=O)[C@@H]1CCCN1C(=O)[C@@H](N)CCCNC(=N)N)C(N)=O | LAD2 human mast cells | CCL2 release, activator, item: CCL2 | 24 h, 37 °C | 1800
CCOC(=O)c1ccc(NC2CCCCC2)c(N)c1 | HT-1080 | protection from ferroptosis, PrestoBlue | 24 h, with: erastin 10 µM | 70
CNC(=O)COc1cc2cc(Nc3nc(N4CCC(C(=O)NCCCCCCCNC(=O)C[C@@H]5N=C(c6ccc(Cl)cc6)c6c(sc(C)c6C)-n6c(C)nnc65)CC4)ncc3Cl)cc(OC)c2n(C)c1=O | DLBCL cell lines | cell viability, PrestoBlue | 72 h | 1 to 10
CC1(C)CC(C)(C)c2cc(N/C(S)=N/c3ccc([N+](=O)[O-])cc3)ccc2S1 | 786-0 | cell growth or viability | 48 h | 7550
C=CCNC1=C2C[C@@H](C)C[C@H](OC)[C@H](O)[C@@H](C)/C=C(\C)[C@H](OC(N)=O)[C@@H](OC)/C=C\C=C(/C)C(=O)NC(=CC1=O)C2=O | Kasumi 1 | cell growth or viability, XTT |  | 1100
CC(=O)N(c1nc(COC(=O)c2ccsc2)cs1)c1ccccc1F | SK-BR-3 | cell growth or viability, MTT | 48 h | 10000
CCCCC[C@H](O)/C=C/[C@H]1CC(F)(F)C(=O)N1CCCCCCC(=O)O | rat bone marrow cells | alkaline phosphatase activity, activator | 9 days | 10.6 ± 2.6
CC(=O)c1ccc2c(c1)N(CCCN(C)C)c1ccccc1S2 | Kasumi 1 | cell growth or viability, XTT |  | 15100
CC[C@H](C)[C@H](NC(=O)[C@H](CCC(=O)O)NC(=O)[C@H](CC(=O)O)NC(=O)CNC(=O)[C@H](CC(C)C)NC(=O)[C@H](CCCNC(=N)N)NC(=O)[C@H](CCC(N)=O)NC(=O)[C@H](CC(C)C)NC(=O)[C@H](CO)NC(=O)[C@H](CCC(N)=O)NC(=O)[C@@H](NC(=O)[C@H](CC(C)C)NC(=O)[C@H](Cc1c[nH]c2ccccc12)NC(=O)[C@@H](NC(=O)[C@H](CCC(=O)O)NC(=O)[C@@H]1CCCN1C(=O)[C@H](CCCNC(=N)N)NC(C)=O)[C@@H](C)CC)[C@@H](C)O)C(=O)N[C@@H](CC(N)=O)C(=O)N[C@@H](C)C(=O)N[C@@H](Cc1ccc(O)cc1)C(=O)N[C@@H](Cc1ccc(O)cc1)C(=O)N[C@@H](C)C(=O)N[C@@H](CCCNC(=N)N)C(N)=O | MDA-MB-231, permeabilized | mitochondrial depolarization, BH3 profiling, JC-1 | 3 h | > 100000

For quick reference, copied from above:
Structure (SMILES) | cell line | test | setting | EC50 [nM]
CCC#CC[C@H](C)[C@H](O)/C=C/[C@H]1CC(F)(F)C(=O)N1CCCCCCC(=O)O | rat bone marrow cells | alkaline phosphatase activity, activator | 9 days, vehicle pretreatment | 2.15
C[C@@H]1C[C@H]2[C@@H]3CCC4=CC(=O)C=C[C@]4(C)[C@@]3(F)[C@@H](O)C[C@]2(C)[C@@]1(O)C(=O)CO | Kasumi 1 | cell growth or viability, XTT |  | 24
